# Experimental data collected from several papers.
# A part holds a random share of what one study measured.
# UniProt O75914, sequence (whole entry, looked up): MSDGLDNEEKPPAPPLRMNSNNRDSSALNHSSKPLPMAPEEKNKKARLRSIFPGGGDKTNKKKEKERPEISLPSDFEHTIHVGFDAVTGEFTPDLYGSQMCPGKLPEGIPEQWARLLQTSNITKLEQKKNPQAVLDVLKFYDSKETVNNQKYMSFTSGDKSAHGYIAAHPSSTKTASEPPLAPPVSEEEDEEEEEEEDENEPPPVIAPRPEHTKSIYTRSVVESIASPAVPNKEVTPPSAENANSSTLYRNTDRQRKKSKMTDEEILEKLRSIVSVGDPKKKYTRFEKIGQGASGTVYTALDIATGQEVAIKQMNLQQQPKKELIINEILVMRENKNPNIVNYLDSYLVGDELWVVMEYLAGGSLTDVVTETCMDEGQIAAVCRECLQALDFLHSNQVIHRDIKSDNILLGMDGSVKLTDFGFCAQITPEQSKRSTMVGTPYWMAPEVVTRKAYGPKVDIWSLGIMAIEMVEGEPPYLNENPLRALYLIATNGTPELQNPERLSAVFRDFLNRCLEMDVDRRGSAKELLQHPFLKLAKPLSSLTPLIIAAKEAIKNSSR
# UniProt O75676, sequence (whole entry, looked up): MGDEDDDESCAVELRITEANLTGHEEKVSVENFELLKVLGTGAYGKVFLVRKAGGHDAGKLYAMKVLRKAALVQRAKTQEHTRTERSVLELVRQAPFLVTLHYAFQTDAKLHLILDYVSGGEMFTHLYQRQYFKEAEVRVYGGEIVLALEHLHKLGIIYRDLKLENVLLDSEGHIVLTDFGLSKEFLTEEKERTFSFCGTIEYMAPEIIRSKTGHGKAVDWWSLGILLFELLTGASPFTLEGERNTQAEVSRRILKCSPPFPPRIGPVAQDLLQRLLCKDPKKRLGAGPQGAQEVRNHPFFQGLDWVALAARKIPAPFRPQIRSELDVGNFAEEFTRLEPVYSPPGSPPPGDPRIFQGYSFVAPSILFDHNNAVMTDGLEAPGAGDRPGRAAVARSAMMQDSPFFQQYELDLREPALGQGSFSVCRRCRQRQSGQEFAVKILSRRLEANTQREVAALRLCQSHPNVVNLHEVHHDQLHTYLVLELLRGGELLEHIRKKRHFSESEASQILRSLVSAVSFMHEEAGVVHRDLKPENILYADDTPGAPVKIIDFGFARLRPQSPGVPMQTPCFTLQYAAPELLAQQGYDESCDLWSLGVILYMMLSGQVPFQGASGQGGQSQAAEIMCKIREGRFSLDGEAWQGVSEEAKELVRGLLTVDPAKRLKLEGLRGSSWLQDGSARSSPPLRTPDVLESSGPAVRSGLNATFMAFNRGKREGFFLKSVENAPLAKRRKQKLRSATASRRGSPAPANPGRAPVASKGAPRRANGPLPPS
# UniProt P50750, sequence (whole entry, looked up): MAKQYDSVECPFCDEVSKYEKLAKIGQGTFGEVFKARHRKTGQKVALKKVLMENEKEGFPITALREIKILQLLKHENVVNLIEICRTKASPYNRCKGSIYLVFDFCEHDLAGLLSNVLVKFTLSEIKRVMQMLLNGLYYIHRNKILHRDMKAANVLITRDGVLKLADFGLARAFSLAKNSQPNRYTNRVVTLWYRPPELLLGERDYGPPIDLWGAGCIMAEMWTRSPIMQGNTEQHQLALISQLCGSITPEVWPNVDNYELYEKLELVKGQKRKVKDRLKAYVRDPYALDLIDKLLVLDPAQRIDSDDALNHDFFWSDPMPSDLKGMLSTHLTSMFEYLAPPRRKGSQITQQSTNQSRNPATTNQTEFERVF
# UniProt Q8N568, sequence (whole entry, looked up): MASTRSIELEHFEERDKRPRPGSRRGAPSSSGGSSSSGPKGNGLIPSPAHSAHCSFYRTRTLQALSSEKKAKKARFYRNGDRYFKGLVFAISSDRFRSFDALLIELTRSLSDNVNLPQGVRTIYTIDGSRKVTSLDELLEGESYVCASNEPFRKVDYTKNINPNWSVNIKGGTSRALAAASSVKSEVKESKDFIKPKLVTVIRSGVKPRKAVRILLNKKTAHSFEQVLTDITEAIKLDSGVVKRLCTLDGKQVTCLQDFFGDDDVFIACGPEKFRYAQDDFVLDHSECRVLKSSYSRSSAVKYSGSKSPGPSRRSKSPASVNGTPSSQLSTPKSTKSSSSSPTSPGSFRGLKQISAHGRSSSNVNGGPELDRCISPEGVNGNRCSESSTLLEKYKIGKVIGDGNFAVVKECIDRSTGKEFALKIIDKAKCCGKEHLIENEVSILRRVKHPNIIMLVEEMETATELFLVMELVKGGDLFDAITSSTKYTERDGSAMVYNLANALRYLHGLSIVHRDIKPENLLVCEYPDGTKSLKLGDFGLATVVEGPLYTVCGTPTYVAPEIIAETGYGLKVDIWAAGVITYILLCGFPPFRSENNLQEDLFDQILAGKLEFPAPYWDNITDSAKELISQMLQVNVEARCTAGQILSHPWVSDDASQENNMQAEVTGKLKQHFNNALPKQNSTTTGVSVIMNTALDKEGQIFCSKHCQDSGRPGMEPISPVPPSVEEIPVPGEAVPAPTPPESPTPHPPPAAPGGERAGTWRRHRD
# UniProt Q9Y5S2, sequence (whole entry, looked up): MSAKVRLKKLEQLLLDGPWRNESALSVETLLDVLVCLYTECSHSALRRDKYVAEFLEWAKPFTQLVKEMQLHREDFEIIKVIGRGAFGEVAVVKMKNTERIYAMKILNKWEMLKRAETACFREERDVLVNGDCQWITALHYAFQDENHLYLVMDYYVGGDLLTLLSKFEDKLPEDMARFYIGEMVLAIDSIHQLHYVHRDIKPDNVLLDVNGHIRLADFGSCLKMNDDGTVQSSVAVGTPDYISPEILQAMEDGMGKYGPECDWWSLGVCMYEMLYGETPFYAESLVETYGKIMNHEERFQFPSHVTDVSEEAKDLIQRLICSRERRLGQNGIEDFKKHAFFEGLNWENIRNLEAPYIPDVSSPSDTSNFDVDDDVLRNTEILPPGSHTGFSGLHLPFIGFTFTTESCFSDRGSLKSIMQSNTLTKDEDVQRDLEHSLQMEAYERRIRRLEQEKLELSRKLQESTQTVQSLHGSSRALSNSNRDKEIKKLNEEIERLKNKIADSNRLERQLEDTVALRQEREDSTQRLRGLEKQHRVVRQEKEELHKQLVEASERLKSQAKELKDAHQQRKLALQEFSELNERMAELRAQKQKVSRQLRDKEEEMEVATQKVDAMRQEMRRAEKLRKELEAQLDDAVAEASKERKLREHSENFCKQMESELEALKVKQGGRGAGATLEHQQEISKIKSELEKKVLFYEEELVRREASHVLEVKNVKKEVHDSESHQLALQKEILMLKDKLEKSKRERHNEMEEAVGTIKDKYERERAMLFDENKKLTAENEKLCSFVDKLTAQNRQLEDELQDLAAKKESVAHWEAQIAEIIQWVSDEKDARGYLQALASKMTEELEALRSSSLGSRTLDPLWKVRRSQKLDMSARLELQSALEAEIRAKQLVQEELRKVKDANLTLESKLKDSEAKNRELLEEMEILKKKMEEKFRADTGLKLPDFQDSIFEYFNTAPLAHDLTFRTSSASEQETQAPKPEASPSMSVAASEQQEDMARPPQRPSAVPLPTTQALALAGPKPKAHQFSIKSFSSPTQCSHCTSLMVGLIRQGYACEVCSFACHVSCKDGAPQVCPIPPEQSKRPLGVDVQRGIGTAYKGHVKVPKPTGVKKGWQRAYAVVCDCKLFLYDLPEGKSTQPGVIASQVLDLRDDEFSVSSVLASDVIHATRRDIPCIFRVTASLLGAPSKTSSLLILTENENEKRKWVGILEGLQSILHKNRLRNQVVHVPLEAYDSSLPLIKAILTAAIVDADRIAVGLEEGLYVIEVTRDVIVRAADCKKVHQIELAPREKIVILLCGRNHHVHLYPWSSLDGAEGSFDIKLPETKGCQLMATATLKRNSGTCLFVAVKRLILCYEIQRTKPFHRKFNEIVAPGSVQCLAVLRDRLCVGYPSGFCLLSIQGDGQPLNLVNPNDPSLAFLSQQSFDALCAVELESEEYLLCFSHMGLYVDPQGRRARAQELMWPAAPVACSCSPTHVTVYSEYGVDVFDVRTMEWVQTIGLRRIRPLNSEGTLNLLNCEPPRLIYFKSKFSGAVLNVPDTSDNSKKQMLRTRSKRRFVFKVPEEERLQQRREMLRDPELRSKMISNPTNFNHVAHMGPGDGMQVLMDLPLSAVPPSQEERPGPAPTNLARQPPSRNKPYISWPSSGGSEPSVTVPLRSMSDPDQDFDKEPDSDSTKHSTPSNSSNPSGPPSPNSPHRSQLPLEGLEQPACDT
# UniProt Q02750, sequence (whole entry, looked up): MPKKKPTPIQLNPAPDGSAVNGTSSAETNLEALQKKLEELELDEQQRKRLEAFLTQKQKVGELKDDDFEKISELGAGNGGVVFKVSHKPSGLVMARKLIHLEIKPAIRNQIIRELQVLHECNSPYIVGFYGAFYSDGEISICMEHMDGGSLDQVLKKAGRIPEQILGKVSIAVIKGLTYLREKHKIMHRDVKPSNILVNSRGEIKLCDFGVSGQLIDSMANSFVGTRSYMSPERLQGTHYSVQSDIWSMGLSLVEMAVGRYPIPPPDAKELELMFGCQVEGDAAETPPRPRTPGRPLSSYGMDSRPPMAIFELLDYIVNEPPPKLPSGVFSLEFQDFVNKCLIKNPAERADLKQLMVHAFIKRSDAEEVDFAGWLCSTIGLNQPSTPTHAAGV

# Block 1
# Cell line: A-375
# Tested at: 100 µM
# Time: 18 h
Compound,viability [%]
Nc1c(CC(=O)O)cccc1C(=O)c1ccc(Br)cc1,98
CC[C@H]1OC(=O)[C@H](C)[C@@H](O[C@H]2C[C@@](C)(OC)[C@@H](O)[C@H](C)O2)[C@H](C)[C@@H](O[C@@H]2O[C@H](C)C[C@H](N(C)C)[C@H]2O)[C@](C)(OC)C[C@@H](C)C(=O)[C@H](C)[C@@H](O)[C@]1(C)O,78
NC(=O)c1ccccc1O,77.6
O=C[C@H](O)[C@@H](O)[C@H](O)[C@H](O)CO,92.6

# Block 2
# SMILES: COc1ccc(-c2c(Nc3ccccn3)[nH]c3c(C4=CCCCC4)c(-c4ccccc4)nn3c2=O)cc1
# Matrix: plasma
# Route: oral
system,conditions,"plasma concentration, mean"
cancer patients,"100 mg, 4 h post-dose, single dose",1130 ng/mL
human patients,"150 mg once daily, 0 h, cycle 1",4630 ng/mL
cancer patients,"400 mg, 24 h post-dose, single dose",779 ng/mL
human patients,"100 mg once daily, 6 h, cycle 1",3730 ng/mL
cancer patients,"200 mg, 48 h post-dose, single dose",698 ng/mL
human patients,"200 mg once daily, 6 h, cycle 1",6650 ng/mL
human patients,"400 mg once daily, 8 h, cycle 1",3930 ng/mL
cancer patients,"150 mg, 2 h post-dose, single dose",1300 ng/mL

# Block 3
# Compound: FC(F)(F)c1ccc(/C=C/c2nc(COc3ccc(CCCCn4ccnn4)cc3)co2)cc1
# Effect on: enzyme activity
# Action: inhibitor
# Tested at: 0.5 µM
# Baseline: control
target,remaining activity [%]
"Serine/threonine-protein kinase Nek3 (NEK3, Homo sapiens, UniProt P51956)",100
"Misshapen-like kinase 1 (MINK1, Homo sapiens, UniProt Q8N4C8)",96.8
"Serine/threonine-protein kinase DCLK2 (DCLK2, Homo sapiens, UniProt Q8N568)",102
"Serine/threonine-protein kinase PAK 3 (PAK3, Homo sapiens, UniProt O75914)",101
"Ribosomal protein S6 kinase alpha-4 (RPS6KA4, Homo sapiens, UniProt O75676)",105
"Dual specificity protein kinase CLK4 (CLK4, Homo sapiens, UniProt Q9HAZ1)",101
"Cyclin-dependent kinase 9, with cyclin K (CDK9, Homo sapiens, UniProt P50750)",105
"cGMP-dependent protein kinase 2 (PRKG2, Homo sapiens, UniProt Q13237)",89.9
"Rho-associated protein kinase 1 (ROCK1, Homo sapiens, UniProt Q13464)",100
"Serine/threonine-protein kinase MRCK beta (CDC42BPB, Homo sapiens, UniProt Q9Y5S2)",100
"Cyclin-dependent kinase 1, with cyclin A (CDK1, Homo sapiens, UniProt P06493)",92.6
"G protein-coupled receptor kinase 4 (GRK4, Homo sapiens, UniProt P32298)",102
"Hepatocyte growth factor receptor (MET, Homo sapiens, UniProt P08581)",95.1
"Dual specificity mitogen-activated protein kinase kinase 1 (MAP2K1, Homo sapiens, UniProt Q02750)",120

# Block 4
# Target: D(4) dopamine receptor (DRD4, Homo sapiens, UniProt P21917)
# UniProt P21917, sequence (whole entry, looked up): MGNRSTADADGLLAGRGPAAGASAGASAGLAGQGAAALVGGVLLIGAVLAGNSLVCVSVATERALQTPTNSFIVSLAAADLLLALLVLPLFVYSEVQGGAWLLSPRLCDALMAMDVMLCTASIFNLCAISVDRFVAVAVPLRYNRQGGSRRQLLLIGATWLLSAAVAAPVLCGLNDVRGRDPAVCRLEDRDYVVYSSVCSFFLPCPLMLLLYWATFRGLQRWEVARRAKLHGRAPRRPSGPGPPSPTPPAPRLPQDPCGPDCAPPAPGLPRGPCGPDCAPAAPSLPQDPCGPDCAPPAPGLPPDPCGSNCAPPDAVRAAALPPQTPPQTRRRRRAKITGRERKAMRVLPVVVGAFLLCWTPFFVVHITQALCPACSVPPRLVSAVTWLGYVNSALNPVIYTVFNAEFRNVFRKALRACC
# Effect on: binding
# Method: radioligand binding
# Tested at: 10 µM
SMILES,inhibition [%]
CNC(=O)Nc1ccc2c(c1)[C@]1(CC2)OC(=O)N(CC(=O)N(Cc2ccc(F)cc2)[C@@H](C)C(F)(F)F)C1=O,8.38
CC1=C(C#N)[C@@H](c2ccc3[nH]nc(C)c3c2)C(C#N)=C(c2ccc(Cl)cc2)N1,5.34
O=C(Nc1cnc(Oc2ccc(F)cc2)nc1)N1CCc2ncccc2[C@@H]1c1ccc(F)cc1,43.8
Cc1nccc(COC(=O)N2C[C@@H]3[C@@H](CNC(=O)c4ccc5[nH]nnc5c4)[C@@H]3C2)n1,-0.15
CC(=O)Nc1c(F)cc(C(=O)N[C@H]2CC[C@H](O)CC2)cc1O[C@@H](C)c1ccccc1,36
COCCc1ccc(-c2c(C)nc3c(N4CCOCC4)ccnn23)cn1,-3.39
COc1cccc(CNC(=O)c2nc3scc(COCc4ccc(C(=O)O)cc4)c3c(=O)[nH]2)c1,14
O=C(NC[C@@H]1[C@H]2CN(C(=O)OCc3cc(C(F)(F)F)cc(C(F)(F)F)c3)C[C@@H]12)c1ccc2[nH]nnc2c1,6.75

# Some of these lines once more (block 2):
system,conditions,"plasma concentration, mean"
human patients,"150 mg once daily, 0 h, cycle 1",4630 ng/mL
cancer patients,"400 mg, 24 h post-dose, single dose",779 ng/mL
human patients,"200 mg once daily, 6 h, cycle 1",6650 ng/mL
cancer patients,"150 mg, 2 h post-dose, single dose",1300 ng/mL
